Assay results pooled from the literature.
Numbered parts are unrelated; each lists some results of a single study.

Set 1
Target: Histone acetyltransferase KAT6A, winged helix 1, GST fusion (KAT6A, Homo sapiens, UniProt Q92794, residues 1-85)
Technique: protein binding microarray
Molecule type: double-stranded DNA, one strand shown
Medium: in vitro
Concentration: not given
Notes: 8-mer, flanks averaged, mean of 2 arrays, mostly near background
Baseline: not given
Direction: higher = stronger binding
Quantity: E-score
Target sequence (chain): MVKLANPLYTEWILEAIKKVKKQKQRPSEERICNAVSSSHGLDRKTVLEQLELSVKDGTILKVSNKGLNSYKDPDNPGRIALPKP
AGTTGTTA: -0.065
GACGGACC: 0.163
TGCGCAAA: 0.2
GTGTATGA: -0.0951
AGAATTTC: -0.0838
CCCCTAGG: -0.135
ATTTGGTG: -0.355
GCGGTGAA: 0.231
AACCTTTG: -0.0779
ATTTAACG: 0.096
ACAGTAAA: -0.111
CGAGGGCC: 0.0299
ACTTACTG: -0.0436
CTATTCAC: -0.0366
GACTCGGC: 0.184
CCCCTAAA: -0.108
CCCGAAGA: 0.0658
ACCAGTCT: -0.0487
AAGTAACG: -0.05
AGACGTGA: -0.0663
ACCATTAC: 0.00284
AAAGACAC: -0.2
ATTGAGCC: -0.0111

Set 2
Target: ATP-dependent RNA helicase DDX3X, helicase core (DDX3X, Homo sapiens, UniProt O00571, residues 132-607)
Chain of UniProt O00571 (132-607, looked up): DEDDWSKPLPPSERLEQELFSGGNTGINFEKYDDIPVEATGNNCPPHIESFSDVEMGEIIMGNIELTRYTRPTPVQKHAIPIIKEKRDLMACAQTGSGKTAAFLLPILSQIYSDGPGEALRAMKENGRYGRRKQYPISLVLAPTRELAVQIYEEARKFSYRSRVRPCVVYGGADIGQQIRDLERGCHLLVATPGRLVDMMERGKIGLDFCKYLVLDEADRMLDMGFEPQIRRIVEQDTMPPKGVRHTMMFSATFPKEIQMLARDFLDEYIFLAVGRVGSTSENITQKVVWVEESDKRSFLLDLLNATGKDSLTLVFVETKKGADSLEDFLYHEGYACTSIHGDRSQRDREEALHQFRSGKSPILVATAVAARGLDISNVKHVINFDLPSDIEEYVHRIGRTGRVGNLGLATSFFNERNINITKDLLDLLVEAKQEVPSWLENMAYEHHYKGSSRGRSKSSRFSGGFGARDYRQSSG
Technique: RNA Bind-n-Seq
Molecule type: RNA
Medium: in vitro
Concentration: not given
Notes: 4-mer, random 30-nt RNA, single round
With: RocA, ADP, phosphate
Baseline: input library
Direction: higher = stronger binding
Quantity: 4-mer enrichment
UGGG: 1.3 fold
ACUA: 0.718 fold
GUAA: 1.06 fold
CUAC: 0.654 fold
GACG: 0.943 fold
AGGG: 1.64 fold
GAUA: 0.941 fold
GCAU: 0.764 fold
CGAG: 1.83 fold
CUGU: 0.798 fold
GAGG: 1.94 fold
GUUU: 1.09 fold
GCCU: 0.659 fold
AAAG: 1.22 fold

Set 3
Target: RING finger protein unkempt homolog, zinc fingers 1-6, SBP tag (UNK, Homo sapiens, UniProt Q9C0B0, residues 30-357)
Chain of UniProt Q9C0B0 (30-357, looked up): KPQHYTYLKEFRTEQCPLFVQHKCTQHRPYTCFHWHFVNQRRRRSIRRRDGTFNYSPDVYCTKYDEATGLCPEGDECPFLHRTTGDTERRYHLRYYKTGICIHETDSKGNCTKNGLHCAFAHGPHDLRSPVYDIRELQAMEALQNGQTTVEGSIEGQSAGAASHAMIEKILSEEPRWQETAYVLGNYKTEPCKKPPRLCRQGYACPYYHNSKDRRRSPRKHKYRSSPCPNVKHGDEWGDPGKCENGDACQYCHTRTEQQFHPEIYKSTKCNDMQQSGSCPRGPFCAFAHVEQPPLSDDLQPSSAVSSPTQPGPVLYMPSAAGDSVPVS
Technique: RNA Bind-n-Seq
Molecule type: RNA
Medium: in vitro
Concentration: 100 nM
Notes: RNA with constant flanks, vertebrate orthologous sites, ends assumed
Baseline: input RNA pool
Direction: higher = stronger binding
Quantity: bound/input enrichment
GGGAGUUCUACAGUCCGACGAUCCCUGGAGAUCCCGUUGUCACUGAGAACCACAAAUCUGACUUUUACAUUUGGUCUCAGUUUAGGUUCUUACCCUGUUUUUUUUGUUGUUUUUUUUUUUGUUUUGUUUUUUUGUUUUUUUUUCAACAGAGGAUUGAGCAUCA: 2.35 ratio
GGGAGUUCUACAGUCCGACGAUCUCCAGUCUUACACUUAUGGUUGGCCUCAAAUCUAUUACAUUUAUGAUACUGUAGUAUAUCUAGUUGAGUUUAAUAUUUUUUUAUUAGCCUGUAAAUAAAGAUGGCAUCUUCUACAUUAAACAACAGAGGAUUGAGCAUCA: 0.928 ratio
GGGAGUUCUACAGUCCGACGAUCCCUCCCCCUGACCCUAAAGUAGAUCUUUUUAAAAUUAUGUCACCACCACUUGUAAAAAUUUAGCAAUACCAGAAGAAAACGCUAAUGAAGUAAGAAAUUUUGCUCAUUGUUUUGCAAACCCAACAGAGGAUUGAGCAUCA: 3.96 ratio
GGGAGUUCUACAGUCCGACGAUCUCCCGGCAGCGCCAGCGGGGGUAGGCGCCCUUCUCACCCUGCUCCUUCUUUAUUCUAUUUUCCUCAGGACUGACCCUGAGGCUCCUGCUUUUGUGGUUCAUCUCGUAUUUAUUUACCUUUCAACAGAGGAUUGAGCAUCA: 1.07 ratio
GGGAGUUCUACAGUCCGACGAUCUUACAGUCAUUGAUGGACUCUAUUUUUUUAUUAUUACUUGGACCUUGGUCGUUUUUAUACUAGCAAAAUGUCUUGUUUUAAUUUGUGUUUUUUGUGGGGAGGGAGGGAGUGAACUUGCUGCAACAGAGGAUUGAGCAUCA: 1.66 ratio
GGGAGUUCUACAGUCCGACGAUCUGGGUUACUCUUAUUAUUAUCAAGUAGCUGGAAUUGUGAAGGUCGGAGUAGUUAGAUCUUUAGCUUUGAUUCCUUAUUUUUUUUUUGUAUUACUAUCCAUGUGUAUAAAUUAUUGAUCAUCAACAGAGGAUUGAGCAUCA: 0.98 ratio
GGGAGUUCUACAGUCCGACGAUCUCCCUUUGCGCCUGUGUCCUUGGAGGGGCCUCCUCUCCACCAAGAAGAAAAAAGCUCGCCCAGAUUCUUUACGCAUCUGACUCUACCGUUCUGGUUUUGUUUUCUAUUAUUUUUGGAUAUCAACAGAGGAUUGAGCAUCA: 0.144 ratio
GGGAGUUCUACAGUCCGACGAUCACGUGGACGGCAGCGAGGAAAAACCAGCCCCCCCUUCACUAGGAGAUACAAACGUUGACAUAGAAGAGCAAUUAAAUUCAAUAAAUUUAUCUUUUCAGGAUGAUCCAGACUCCAGUACCACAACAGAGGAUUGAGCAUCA: 0.848 ratio

Set 4
Target: Interferon regulatory factor 5, full length, phosphomimetic (IRF5, Homo sapiens, UniProt Q13568-2, residues 1-514, S451D/S453D/S456D/S462D)
Technique: protein-binding microarray
Molecule type: double-stranded DNA, one strand shown
Medium: in vitro
Concentration: 940 nM top
Notes: 60-bp whole probe
With: salmon DNA 0.4 mg/ml
Baseline: random background probes
Direction: higher = stronger binding
Quantity: fitted relative affinity
Shared flanks, not repeated: GCCTAGCAC … GTCTTGATTCGCTTGACGCTGCTG
CACTATTTAAGGCCTATGCACGTGCTA: -0.0739 z-score
CCTCCCTCTCCCGGAGTTCCGTGCTAG: 0.0628 z-score
GACCGTATCGGGTATCGGGACGTGCTA: 3.14 z-score
TTAGGCTTCGACTATCGGTTAGTGCTA: -0.19 z-score
CACGGTATCGGTATCGGGACGTGCTAG: 7.89 z-score
TCACCTTTGCCTCCAGGACTGTGCTAG: 0.398 z-score
TCATGAATGTGTCTTAAACTGTGCTAG: -0.185 z-score
GAAGGTATCGGGTATCGGGACGTGCTA: 4.4 z-score
GCACTTTGGGAGGCCGAGGCGTGCTAG: -0.754 z-score
GCCGATCTCAGTATCGAGACGTGCTAG: 2.76 z-score
GACGGTATCGACTTTCCGGACGTGCTA: 4.89 z-score
GACGAACTGAGTATCGAGATGTGCTAG: 1.35 z-score
TTAGGTTTCCTTATCCTGTAGTGCTAG: 1.76 z-score
GTAGATATCAGTCTCGATTAGTGCTAG: 2.97 z-score
TCACATCTCTGTCCGTGACTGTGCTAG: 0.516 z-score
GACGGGCTGGGGTATCGGGACGTGCTA: 0.655 z-score
TCATTTACCACATTCTCACTGTGCTAG: 1.4 z-score
GACTATATCGGGTATCGAGACGTGCTA: 1.14 z-score
GACGGTTTCCGTTTCGGGACGTGCTAG: 2.94 z-score

A few entries again (set 1):
GCGGTGAA: 0.231
CCCGAAGA: 0.0658
ACTTACTG: -0.0436
AGAATTTC: -0.0838
AGACGTGA: -0.0663
AAGTAACG: -0.05
CGAGGGCC: 0.0299
GTGTATGA: -0.0951
GACTCGGC: 0.184
CTATTCAC: -0.0366
